Experimental data gathered from unrelated publications.
Each line is one published result; not all experiments were run side by side. Numbers after ± are the reported error.

For `CNC(=O)c1c(C)oc2cc(Oc3ncnc4cc(OC)c(OC)cc34)ccc12`, the Vz/F was 43.5 L (human, plasma; oral, 5 mg, fed, high-fat meal).
For `CCOc1ccc(Cc2cc([C@]34OC[C@](CO)(O3)[C@@H](O)[C@H](O)[C@H]4O)ccc2Cl)cc1`, the Vz/F was 269 L (human, type 2 diabetes, severe renal impairment, plasma; oral, 15 mg).
`Cc1ccsc1C(=O)Nc1cc(CN2CCN(C(=O)CO)CC2)ccc1/C=C/c1n[nH]c2ccccc12` gave a Vz/F of 29.6 ± 1.69 L (human patients, plasma; oral, 50 mg/day, day 28).
`CCOc1c([C@H](C)n2nc(C)c3c(N)ncnc32)cc(Cl)c(F)c1[C@@H]1CNC(=O)C1` gave a Vz/F of 54.7 ± 13.9 L (healthy fasted humans, plasma; oral, 10 mg).
For `O=C(c1cccnc1-c1ccncc1)N1CCC(O)(Cc2ccccc2)CC1`, the Vz/F was 1320 L (healthy human, plasma; oral, 100 mg once daily, day 1, arithmetic mean).
For `C=CC(=O)N1CCC(CNc2ncnc(N)c2-c2ccc(Oc3ccccc3)cc2)CC1`, the Vz/F was 1480 L (human, plasma; oral, 500 mg single dose, geometric mean).
With `C=CC(=O)N1CCC([C@@H]2CCNc3c(C(N)=O)c(-c4ccc(Oc5ccccc5)cc4)nn32)CC1` the Vz/F was 2840 L (human; oral, 480 mg single dose, mean).
`CC[C@H](C)[C@@H]1NC(=O)[C@H](CCCNC(=N)N)NC(=O)[C@H](CC(=O)O)NC(=O)[C@H](CC(C)C)NC(=O)[C@H](CCCCN)NC(=O)[C@H](CC(C)C)NC(=O)CNC(=O)[C@H](Cc2ccccc2)NC(=O)[C@@H](NC(=O)CNC(=O)[C@H](CCCCN)NC(=O)[C@H](CO)NC(=O)[C@H](CC(C)C)NC(=O)CNC(=O)[C@H](CCCCN)NC(=O)[C@H](CCCCN)NC(=O)[C@H](CC(N)=O)NC(=O)[C@H](C)NC(=O)CNC(=O)[C@H](CCCCN)NC(=O)[C@H](Cc2ccc(O)cc2)NC(=O)[C@H](CCCCN)NC(=O)[C@H](CCCNC(=N)N)NC(=O)[C@H](C)NC(=O)[C@H](CC(N)=O)NC(=O)[C@@H]2CCCN2C(=O)[C@H](Cc2c[nH]cn2)NC(=O)[C@H](CCC(=O)O)NC(=O)[C@H](CCC(N)=O)NC(=O)CNC(=O)[C@@H]2CCCN2)CSSC[C@@H](C(=O)O)NC(=O)CNC(=O)[C@H](CC(C)C)NC(=O)CNC(=O)[C@H](CO)NC(=O)[C@H](CCSC)NC(=O)[C@H](CO)NC(=O)CNC1=O` has a Vz/F of 3.02 L/kg (ECLA; human, plasma; subcutaneous, 15 µg/kg once daily, week 26).
With `CCCS(=O)(=O)N[C@H]1C[C@@H](N(C)c2ncnc3[nH]ccc23)C1` the Vz/F was 211 L (human, normal hepatic function; oral, 200 mg, single dose, geometric mean).
`COc1cc2nccc(Oc3ccc(NC(=O)NC4CC4)c(Cl)c3)c2cc1C(N)=O` gave a Vz/F of 313 L (human, plasma; oral, 5 mg, arithmetic mean, together with: ketoconazole 400 mg/day).
`CCc1cc(/C(C)=N/OCc2ccc(C3CCCCC3)c(C(F)(F)F)c2)ccc1CN1CC(C(=O)O)C1` has a Vz/F of 162 L (healthy human, plasma; oral, 4 mg, geometric mean, together with: fluconazole steady state).
`CC(C)NC[C@@H](C(=O)N1CCN(c2ncnc3c2[C@H](C)C[C@H]3O)CC1)c1ccc(Cl)cc1` has a Vz/F of 20200 L (human, Mild hepatic function (Child-Pugh), plasma; oral, 100 mg single dose, geometric mean).

For quick reference, copied from above:
`CC(C)NC[C@@H](C(=O)N1CCN(c2ncnc3c2[C@H](C)C[C@H]3O)CC1)c1ccc(Cl)cc1` has a Vz/F of 20200 L (human, Mild hepatic function (Child-Pugh), plasma; oral, 100 mg single dose, geometric mean).
`CC[C@H](C)[C@@H]1NC(=O)[C@H](CCCNC(=N)N)NC(=O)[C@H](CC(=O)O)NC(=O)[C@H](CC(C)C)NC(=O)[C@H](CCCCN)NC(=O)[C@H](CC(C)C)NC(=O)CNC(=O)[C@H](Cc2ccccc2)NC(=O)[C@@H](NC(=O)CNC(=O)[C@H](CCCCN)NC(=O)[C@H](CO)NC(=O)[C@H](CC(C)C)NC(=O)CNC(=O)[C@H](CCCCN)NC(=O)[C@H](CCCCN)NC(=O)[C@H](CC(N)=O)NC(=O)[C@H](C)NC(=O)CNC(=O)[C@H](CCCCN)NC(=O)[C@H](Cc2ccc(O)cc2)NC(=O)[C@H](CCCCN)NC(=O)[C@H](CCCNC(=N)N)NC(=O)[C@H](C)NC(=O)[C@H](CC(N)=O)NC(=O)[C@@H]2CCCN2C(=O)[C@H](Cc2c[nH]cn2)NC(=O)[C@H](CCC(=O)O)NC(=O)[C@H](CCC(N)=O)NC(=O)CNC(=O)[C@@H]2CCCN2)CSSC[C@@H](C(=O)O)NC(=O)CNC(=O)[C@H](CC(C)C)NC(=O)CNC(=O)[C@H](CO)NC(=O)[C@H](CCSC)NC(=O)[C@H](CO)NC(=O)CNC1=O` has a Vz/F of 3.02 L/kg (ECLA; human, plasma; subcutaneous, 15 µg/kg once daily, week 26).
